# Experimental data gathered from unrelated publications.
# Each numbered part is a random draw from the data of one study; scales do not carry over between parts. Positions count from the first letter of the parent shown.

# Sample 1 — technique: aptamer microarray, sandwich; molecule type: DNA with 2'F-ANA; medium: in vitro; tested at: 200 nM; added: Cy3 exosite-II aptamer, 400 nM; direction: higher = stronger binding; oligonucleotide: GGTTGGTGTGGTTGG
# Target: Prothrombin, mature alpha-thrombin (F2, Homo sapiens, UniProt P00734)
# Setting: whole 15-mer aptamer, many near background
Modification,mean fluorescence intensity
2'F-ANA at 1 3 4 7 9 10 11 14,62.8 a.u.
2'F-ANA at 1 4 5 6 9 11 14 15,50.7 a.u.
2'F-ANA at 3 6 8 10 11,459 a.u.
2'F-ANA at 1 2 6 8 10 14,64 a.u.
2'F-ANA at 1 4 5 10 11,60.6 a.u.
2'F-ANA at 2 4 5 6 8 9 10 11 13 14 15,51 a.u.
2'F-ANA at 1 2 3 5 8 10 12 14 15,54.7 a.u.
2'F-ANA at 1 2 3 5 7 9 11 12,272 a.u.
2'F-ANA at 2 3 4 11 13,437 a.u.
2'F-ANA at 3 4 10 11 15,267 a.u.
2'F-ANA at 2 4 5 6 7 9 11 14 15,56 a.u.
2'F-ANA at 4 5 8 11 12 14 15,54.5 a.u.
2'F-ANA at 3 5 6 7 8 9 10 11 12 13 15,59.9 a.u.
2'F-ANA at 3 4 5 6 7 8 9 14,49.9 a.u.
2'F-ANA at 1 3 8 9 12 14 15,165 a.u.
2'F-ANA at 2 3 4 5 7 9 11 14,56.6 a.u.
2'F-ANA at 2 3 4 5 6 9 11 12,151 a.u.
2'F-ANA at 3 4 5 6 8 9 10 11 12 13 14 15,51.4 a.u.

# Sample 2 — target: CCND1, cyclin fold, Cln2 fusion (human); technique: yeast growth competition, sequencing; medium: yeast; setting: weak parent motif; baseline: not given; direction: higher = stronger binding
# Parent: CDC25A docking peptide (human); PPHRRRLLFACSP
Variant,normalised enrichment score
L7Y,0.226
H3S,0.447
R5P,0.111
L8H,-0.325
P2W,0.253
R5I,0.622
A10P,-0.325
R5G,0.0467
R6D,-0.0385
L8Y,-0.126
A10S,0.0768
R4Y,0.0689
R6T,0.142
R4D,0.153
S12C,0.0842
A10E,-0.0933
R5F,0.365
P13E,-0.145
L7M,0.0774
P13S,0.164
P13V,0.00249
R5A,0.247
R6N,0.233

# Sample 3 — technique: DHFR PCA, deep sequencing; medium: yeast; added: (+)-ABA 1.4 µM; baseline: wild-type fitted maximum; direction: higher = stronger binding
# Target: ABI1, truncated, D143A, DHFR fusion (Arabidopsis thaliana)
# Setting: methotrexate growth selection, single substitutions
# Parent: PYL1, truncated, DHFR fusion (Arabidopsis thaliana); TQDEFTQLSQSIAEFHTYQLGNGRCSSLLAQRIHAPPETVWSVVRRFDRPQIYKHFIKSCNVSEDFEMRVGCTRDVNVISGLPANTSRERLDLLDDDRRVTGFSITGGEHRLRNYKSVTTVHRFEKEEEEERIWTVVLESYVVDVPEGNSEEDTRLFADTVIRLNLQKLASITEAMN; partner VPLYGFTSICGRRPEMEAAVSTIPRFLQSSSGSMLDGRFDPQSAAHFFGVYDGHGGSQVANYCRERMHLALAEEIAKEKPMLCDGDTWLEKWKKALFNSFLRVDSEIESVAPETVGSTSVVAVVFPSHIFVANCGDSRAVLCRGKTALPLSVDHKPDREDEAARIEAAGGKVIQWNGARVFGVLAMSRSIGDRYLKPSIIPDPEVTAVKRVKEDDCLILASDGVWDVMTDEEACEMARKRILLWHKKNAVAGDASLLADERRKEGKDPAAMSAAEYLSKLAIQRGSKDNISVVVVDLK
Variant,relative binding score [%]
E151A,66.1
F66N,20.7
G102W,12.3
F56L,35.8
Q7C,62.2
I105V,52.8
Q19E,77.7
E147K,32.5
S117N,-3.99
K58S,39.8
F15G,-6.06
M176F,6.81
V44R,-15.9
D3Q,53.4
N114E,1.31
E139N,10.7
Q2S,65.3
F103C,1.77

# Sample 4 — target: CEBPD, bZIP domain (human); technique: DHFR protein complementation; medium: yeast; baseline: wild-type JUN-FOS pair; direction: higher = stronger binding
# Setting: single substitutions, most at no-binding floor
# Parent: JUN, bZIP domain (human); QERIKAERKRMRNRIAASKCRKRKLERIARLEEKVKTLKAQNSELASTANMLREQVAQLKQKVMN; partner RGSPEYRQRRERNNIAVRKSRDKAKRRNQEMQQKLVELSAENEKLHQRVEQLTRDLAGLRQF
Variant,binding fitness [natural log]
I28E,-1.22
M51K,-1.29
S47P,-1.44
M51F,-1.28
V56Y,-1.48
T37Y,-1.34
L45V,-1.48
R53P,-1.41
T48G,-1.51
E32I,-1.29
S43V,-1.35
E32A,-1.29
A49L,-1.18
R53F,-1.04
Q41E,-1.34
N42K,-1.43
M51P,-1.48
E33H,-1.42
E32T,-1.42
E54S,-1.37
A46D,-1.45
T37L,-1.26
M51L,-1.28
L38E,-1.47
E44H,-1.31

# Sample 5 — technique: RNA Bind-n-Seq; molecule type: RNA; medium: in vitro; tested at: not given; baseline: input RNA pool; direction: higher = stronger binding
# Target: RING finger protein unkempt homolog, zinc fingers 1-6, GST-SBP tag (UNK, Homo sapiens, UniProt Q9C0B0, residues 30-357)
# Chain of UniProt Q9C0B0 (30-357, looked up): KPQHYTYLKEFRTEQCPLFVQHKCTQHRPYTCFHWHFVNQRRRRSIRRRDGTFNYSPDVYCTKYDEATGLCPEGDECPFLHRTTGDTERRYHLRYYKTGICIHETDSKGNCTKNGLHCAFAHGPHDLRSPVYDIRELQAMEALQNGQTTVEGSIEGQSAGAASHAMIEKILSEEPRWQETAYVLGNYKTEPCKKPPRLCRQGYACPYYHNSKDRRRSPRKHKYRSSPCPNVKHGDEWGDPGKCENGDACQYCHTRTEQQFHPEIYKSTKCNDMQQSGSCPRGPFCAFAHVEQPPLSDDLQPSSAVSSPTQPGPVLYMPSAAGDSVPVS
# Setting: RNA with constant flanks, human and mouse sites, ends assumed
# Constant ends, left off below: GGGAGUUCUACAGUCCGACGAUC … CAACAGAGGAUUGAGCAUCA
Oligonucleotide,bound/input enrichment [ratio]
UGGUGCCCAUGGCGGCCGCCCCGGAGCCCCACGAGACGGAGAAAAAGCCCUUCAAGCUCCUAGGUAUUUUAGAUGUUGAGAACACUCCAUGUGCUCGAGAAUCUAUACUCUAUGGCUCAU,0.19
UCCAGAAGCACUGCGUAUGAAGAUUAUUAUUAUCACCCUCCUCCCCGAAUGCCACCUCCAAUGAGAGGCCGAGGUCGUGGAGGGAGAGGUGGAUAUGGCUACCCUCCAGAUUAUUAUGGC,0.119
AUCACUAAAUUCUGCUGUCAUCAAGAGCAGAUAUAUAGUAGUUGACUCAGUAAGUGUAAAUGCUCAGAAUAAGUUAAAUAUGUGGUUACAGUUUUUGUUUAACAUCCAGGUACAGCUAUG,0.135
GAUUUUUAACUCCAGAAGCACUUUACGGGAUGGUACACUGACUAACAUAGAAGACAUUUCCAGGAGUUUGCCAGGGGUUCCUCACUAUGCUGGUACUAAAAGUAUAACCUCUUGGAGCCA,0.228
GACAGAAUUCAGAAGCAGGAAAAAAAGCCUUUUAAAAAUACCGAGAACAUUAAAAAUUCGCAUUUGAAGAAAUCAGCAUUUCUAACUGAAGUGAGCCAAAAGGAAAAUUAUGCUGGGGCA,0.45
GUGCAGCAGGACACGAUCCUGGCCGAAGGCCUUCACUUCAGGAUCCCCUGGUUCCAGUACCCCAUCAUCUAUGACAUUCGGGCCAGACCUCGAAAAAUCUCCUCCCCCACAGGCUCCAAA,0.462
CACCCUGUUCUCAGUAAAGAUCGCAACUUUCAUGUUUUCCUGGAAUAUGAUCAGGAUCUAAGUGUUAGGCGGAAAAAUACUAAAGAGAUGUUUGGUGGCUUCUUCAAAAGUGUGGUGAAA,0.204
UUACAAAGGACAAUCUUGGGUGGAAUUGCUUUUGUUGCCAUAAAAGGAGCAUUUAAGGUUUACUUCAAACAGCAGCAAUAUUUACGUCAGGCACACCGCAAAAUCCUAAAUUAUCCAGAG,0.177
AGAGCAGGCCUCUCCCCUCCGUCCUCGUCGUCCUCGUCCUCCUCCUCCUCCUCCUCCUCCGUGGUGGUAGUGGUGGGACUUCCCCCGGCUGCUGCCCCUCCCGCCGCCGCUGCUGUCCCC,0.458
GUUCUUGAAGUGAAUAUCCCAAAGAAGCCAGAUGGAAAGAUGCGUGGUUUUGCUUUUGUUCAGUUCAAAAACCUCCUUGAAGCAGGAAAAGCUCUCAAAGGCGCGAAUAUGAAGGAGAUA,0.606
CUUGUGGGGUUAAGGGGUAGAACCUAUCUUGCCUUCACUCUCAAGAUAACGACUCAAAUUAAGCUUUUUGAGCACCACUCUUGUGGGGACACACAUACGCUGAUCUAGGAAUGAAAUCUU,0.345

# Sample 6 — target: CEP164, C-terminal peptide (human); technique: DHFR complementation, deep sequencing; medium: yeast; baseline: wild type; direction: higher = weaker binding
# Setting: single substitutions, model-inferred values
# Parent: PDZK1, PDZ domain 2 (human); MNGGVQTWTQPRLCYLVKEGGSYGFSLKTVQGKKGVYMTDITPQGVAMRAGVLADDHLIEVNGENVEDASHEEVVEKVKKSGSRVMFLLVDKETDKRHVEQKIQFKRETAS; partner HNRVKVYRF
Variant,binding free energy change [kcal/mol]
I103F,-0.099
V52I,0.315
L88F,0.0797
H71N,-0.023
D91P,-0.285
H98N,-0.0585
K106L,-0.0416
V99Y,-0.115
W8A,-0.16
T7Y,-0.0455
K18G,0.836
S70I,0.149
D55C,0.549
Q44D,-0.0988
M1Y,0.0256
M1R,-0.145
V52D,1.31
V61F,1.92
V17A,0.00645

# Excerpt of the above (sample 1):
Modification,mean fluorescence intensity
2'F-ANA at 1 3 4 7 9 10 11 14,62.8 a.u.
2'F-ANA at 1 4 5 6 9 11 14 15,50.7 a.u.
2'F-ANA at 3 6 8 10 11,459 a.u.
2'F-ANA at 1 2 6 8 10 14,64 a.u.
2'F-ANA at 1 4 5 10 11,60.6 a.u.
2'F-ANA at 2 4 5 6 8 9 10 11 13 14 15,51 a.u.
2'F-ANA at 1 2 3 5 8 10 12 14 15,54.7 a.u.
2'F-ANA at 1 2 3 5 7 9 11 12,272 a.u.
